Assay results pooled from the literature.
Every numbered part comes from another study and shows a few of its results, in no order.

Study 1 — technique: RNA Bind-n-Seq; molecule type: RNA; matrix: in vitro; concentration: 365 nM; reference: no-protein control; reading: higher = stronger binding
Target: RNA binding protein fox-1 homolog 2, RRM domain, GST-SBP tag (RBFOX2, Homo sapiens, UniProt O43251-10, residues 100-194)
Notes: natural RNA segment, single round, ends assumed
Construct (chain): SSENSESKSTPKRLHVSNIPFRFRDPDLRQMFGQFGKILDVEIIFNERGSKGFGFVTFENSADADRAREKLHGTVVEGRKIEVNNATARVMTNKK
Oligonucleotide	RBNS enrichment (R)
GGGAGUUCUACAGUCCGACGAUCACAACCUCUUCAAAGUACCCUUGGAAAUUGAAGUUCAAUCUUAAGUUUUUUGCUGUCUUUAAUUUACUAGAAUUGCCUAAUUUUUAGUUGAUUUCUCUACAGAGCUUAGCUGGAAUUCUCGGGUGCCAA	0.334
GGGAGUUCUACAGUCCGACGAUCAGAGUACCUGCUGCUGUAUCUUGGAAGAUGACAACAUCCUUUUUCAUUACUGUUUGAUUGAAAAUAAUUUCAAGAUUCAAAAUCUCAUUGACUUCCCAAAUUUGUGUUUUUGGAAUUCUCGGGUGCCAA	1.11
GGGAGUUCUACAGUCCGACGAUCGUGCUGGUGCAAGGACUUCUGUUCCAAAGGCUGGGAAAAACUAAGCUGUCCCAGCCCCUCCCAUUUCUUGGGCAGGGCUCUUUUCCUGUUGUGUCUUCCCCCAGGGCCUGUGGAAUUCUCGGGUGCCAA	0.349
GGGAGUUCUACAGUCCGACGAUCAAGCUGCUGGAGCGACUGAUGUACAGUUGUUAUUUGUCUAUAAAUGGAGCUGUUUAUGGCAAUUUAAUACCAUUCUCUUUGUAAAGUGAAUAAAUACUCAUCUUUACCCAUGGAAUUCUCGGGUGCCAA	0.605
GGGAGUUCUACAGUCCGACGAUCUAGGAUUUCCUCUUUUCCAGGCACAUUGUAAACUGUGUCUACAGUUUAUCCAUAUAACUUCUCUUCUGAAAACUGAGGAGUGUCCUCUGUUCUUCCAGUUCACGAGGGCAUGGAAUUCUCGGGUGCCAA	0.231
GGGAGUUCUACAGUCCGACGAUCUUGCUAAGUCUAUUGAUGAUAUGAAUUGGAAAGGGAGAAUUUUGAAUAUGGUGAGAAAUUGGGAAAAAUGGACAUUGAUAGGCAUAUCAUCUGCUUUGUGUACAUAUGGUUGGAAUUCUCGGGUGCCAA	1.76
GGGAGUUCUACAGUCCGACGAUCUCUUAUAUGCCAGAAUGUAGGCUGGUCCCUAUGUCAUGUCUUCCAUUAAGAACACUAAAAAGUCCUUGCAAGAAUGGAGAUAUGCAUUCAAGAGAGGUGCUAUCACAUAGUGGAAUUCUCGGGUGCCAA	0.956
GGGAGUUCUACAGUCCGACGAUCUCCUGUUUCUCUAACACUAACAUGGAUAACCUAAGGGAAGUGCCAGCCGCUGUUGGCAGGGUAUUAAACGUGCAUUUUUACUCAACUACCUCAGGUAUUCAGUAAUACAGUGGAAUUCUCGGGUGCCAA	0.386

Study 2 — technique: RNA Bind-n-Seq; molecule type: RNA; matrix: in vitro; concentration: 200 nM; notes: whole 134-nt RNA, ends assumed; added: 150 mM KCl; reference: input library; reading: higher = stronger binding
Target: Ras GTPase-activating protein-binding protein 1, full length (G3BP1, Homo sapiens, UniProt Q13283)
Sequence of UniProt Q13283 (whole entry, looked up): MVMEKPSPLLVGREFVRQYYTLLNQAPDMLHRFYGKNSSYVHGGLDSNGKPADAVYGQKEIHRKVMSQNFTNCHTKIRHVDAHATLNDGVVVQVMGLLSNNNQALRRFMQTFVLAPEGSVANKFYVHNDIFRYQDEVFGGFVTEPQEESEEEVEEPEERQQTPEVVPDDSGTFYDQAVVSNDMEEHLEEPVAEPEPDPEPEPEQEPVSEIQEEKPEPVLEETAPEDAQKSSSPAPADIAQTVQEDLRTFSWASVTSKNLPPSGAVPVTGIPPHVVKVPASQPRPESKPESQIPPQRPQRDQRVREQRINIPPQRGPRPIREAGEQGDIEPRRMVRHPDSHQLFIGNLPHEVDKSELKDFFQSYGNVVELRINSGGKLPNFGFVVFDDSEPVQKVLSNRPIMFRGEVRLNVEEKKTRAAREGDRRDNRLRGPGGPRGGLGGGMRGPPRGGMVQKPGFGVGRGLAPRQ
Oligonucleotide	log2 enrichment
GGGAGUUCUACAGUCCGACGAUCACCAUGCAGGUGGGCAUCUUUGGGAAGUGGCGCAAGGGGGGGAUAGGGAGGGGGGUAACACUUUGGGAACAGGUGGUCCCAGGUCGUUUCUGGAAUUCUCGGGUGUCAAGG	1.42
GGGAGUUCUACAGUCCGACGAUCAAGUCCUGUGCUACACAUCGUAUGUACCGAAUCGGGGCCCGGGGCCCGGGCCCGGGGAAAGUAUUAUGUUACGCCGUUCGGAUCUGCACUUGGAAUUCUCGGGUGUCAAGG	-1.35
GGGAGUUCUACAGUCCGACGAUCUGCGGGCGGCUGAGACGCCGCCUGCCUGGCACCUAGGAGCGCAGCGGAGCCCCGACACCGCCGCCGCCGCCAUGGAGUCCGAGACCGAACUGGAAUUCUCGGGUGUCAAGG	1.31
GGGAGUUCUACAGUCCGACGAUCCAAGUCCUGUGCUACACAUCGUAUGUACCGAAUCGGGUUUGGGGUUUGGUUUGGGAAAGUAUUAUGUUACGCCGUUCGGAUCUGCACUUCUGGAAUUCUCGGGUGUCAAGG	-0.211
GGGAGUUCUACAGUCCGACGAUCGUCCUGUGCUACACAUCGUAUGUACCGAAUCGGGGUUUGGGGAAAAAAAGGGGUGGGGAAAGUAUUAUGUUACGCCGUUCGGAUCUGCACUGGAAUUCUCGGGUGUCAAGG	0.499
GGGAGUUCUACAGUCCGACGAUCUGGCCCUGGUGGCAUGCGGGGAGGAAGAGGUGGCCUCAUGGAUCGUGGUGGUCCCGGUGGAAUGUUCAGAGGUGGCCGUGGUUGAGACAGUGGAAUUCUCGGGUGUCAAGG	0.0475
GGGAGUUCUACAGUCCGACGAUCUCAAGUCCUGUGCUACACAUCGUAUGUACCGAAUCGGUUUGGUUUGGGUUUGGGAAAGUAUUAUGUUACGCCGUUCGGAUCUGCACUUCCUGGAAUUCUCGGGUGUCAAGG	-0.749
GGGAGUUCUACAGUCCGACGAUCUCCUGUGCUACACAUCGUAUGUACCGAAUCGGUUUUUUGGGUUUUUUGGGGUUUUUUGGGAAAGUAUUAUGUUACGCCGUUCGGAUCUGCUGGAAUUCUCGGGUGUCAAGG	-0.412
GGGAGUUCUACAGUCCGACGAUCCUCAAGUCCUGUGCUACACAUCGUAUGUACCGAAUCGGUUUUUGGAAAGGUGGAAAGUAUUAUGUUACGCCGUUCGGAUCUGCACUUCCAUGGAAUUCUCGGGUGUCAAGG	-0.489

Study 3 — technique: RNA Bind-n-Seq; molecule type: RNA; matrix: in vitro; concentration: not given; notes: RNA with constant flanks, ends assumed; reference: input RNA pool; reading: higher = stronger binding
Target: RING finger protein unkempt homolog, zinc fingers 1-6, GST-SBP tag (UNK, Homo sapiens, UniProt Q9C0B0, residues 30-357)
Construct (chain): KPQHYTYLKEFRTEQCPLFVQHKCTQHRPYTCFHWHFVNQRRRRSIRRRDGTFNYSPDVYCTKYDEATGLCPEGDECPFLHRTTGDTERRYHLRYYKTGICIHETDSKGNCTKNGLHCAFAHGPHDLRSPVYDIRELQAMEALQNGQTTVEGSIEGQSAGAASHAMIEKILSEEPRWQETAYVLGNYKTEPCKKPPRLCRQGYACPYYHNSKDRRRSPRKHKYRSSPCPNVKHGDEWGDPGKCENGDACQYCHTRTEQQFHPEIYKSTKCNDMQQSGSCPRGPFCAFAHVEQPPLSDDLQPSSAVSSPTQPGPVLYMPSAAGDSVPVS
Oligonucleotide	bound/input enrichment [ratio]
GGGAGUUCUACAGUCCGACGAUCGUCAUUUUUUUUCUUUGAAUAAAUGUCACUUUUUGAGGCAAAAGAAGGAACCGUGAACAUUUCCGACACCCUUUUCUUUGGGGUAGGCUCUUGCCCCAGGCGCCGGCUCUUCUCCCAAAACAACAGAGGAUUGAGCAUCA	0.323
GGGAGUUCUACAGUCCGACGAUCCCCAAGAAACUCCAUUUGUGUGCCUUGUGUGGCAAGAACUUUUCUAAUAACUCAAACCUAAUCCGGCACCAGAGAAUACAUGCAGCAGAAAAGCUGUGUAUGGAUGUAGAGUGUGGUGAACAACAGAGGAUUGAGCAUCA	0.289
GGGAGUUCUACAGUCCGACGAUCUAUCCAAAUCUAAACAUGAUUGAGACAUUUAUUUGUCAAGUGUGUGAGGAGACACUUUCACACCGCGUGAAUUCCCCUGAACAGCUAACUGGAAUGAGGAUGCUUAGACAUCUCACUAUACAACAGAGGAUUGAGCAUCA	0.22
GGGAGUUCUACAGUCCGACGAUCGUUUGAGCCUAGCAAUUGCAGAACUCAUAAAAUUGCUUGUGAAAUUACACACCAUAUUACCCGCAUAUACAUUGCAGUGCUCCAAUCAUGCUAACAGAUAAUAGAUUUUUCUUUAAGAAUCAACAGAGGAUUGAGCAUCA	0.64
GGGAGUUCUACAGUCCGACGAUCUUUCUGAAAAUCCAAAGUCAGGAAGCCAAGUGUGCGAAGGGUUAGUGACGCCUCUGGCAACCGCUUUGGCUUGCCCUGGGCCAUACUCUGUCAGCACUGAAAGGAGGUUUAAAUACUAUGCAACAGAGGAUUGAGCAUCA	0.0807
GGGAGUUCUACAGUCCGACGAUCCAAAAAAGCUAUGAGGAAGAGCUCCUCCCCUUCCUUGAGUAACUGCAACUCCGAUCUUGCCCGCAAAAUAUUUGGAAUUCCACUUGAUGAGCUGCAGCAGGGAGGACAUCCAGACAAUGACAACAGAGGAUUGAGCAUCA	0.186

Study 4 — technique: competition protein-binding microarray; molecule type: double-stranded DNA, one strand shown; matrix: in vitro; concentration: 2 µM; added: Pho4 competitor, 0.05 µM; reading: higher = stronger binding
Target: Centromere-binding protein 1, full length, His-tagged (CBF1, Saccharomyces cerevisiae, UniProt P17106, residues 1-351)
Sequence of UniProt P17106 (whole entry, looked up): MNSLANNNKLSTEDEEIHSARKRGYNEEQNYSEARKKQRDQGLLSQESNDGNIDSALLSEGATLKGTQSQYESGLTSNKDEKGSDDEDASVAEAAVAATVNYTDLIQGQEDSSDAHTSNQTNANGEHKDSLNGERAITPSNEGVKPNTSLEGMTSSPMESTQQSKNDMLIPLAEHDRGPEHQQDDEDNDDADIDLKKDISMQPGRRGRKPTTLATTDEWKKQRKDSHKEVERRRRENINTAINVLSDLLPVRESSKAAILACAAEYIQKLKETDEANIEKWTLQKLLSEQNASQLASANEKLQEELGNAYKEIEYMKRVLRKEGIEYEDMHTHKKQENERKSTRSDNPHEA
Notes: whole 60-bp probe, lowest competitor level
Oligonucleotide	fluorescence intensity
GCCTTAAGATTCTGTCATGCGGGTGTCGATAGCGTCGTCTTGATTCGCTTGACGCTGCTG	86.5 a.u.
ATAAGTAAACTCTCACACATGCTAACTTCTGTTGGGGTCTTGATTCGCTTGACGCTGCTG	101 a.u.
TAAATAACCCTGAGCCACATGTGTAAGATGCCGTAGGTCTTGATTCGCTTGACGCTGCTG	81.5 a.u.
TCTTAGCAGTGAGGACACGGGAGTTGCAGATCAATCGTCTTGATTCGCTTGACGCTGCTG	75.2 a.u.
CTTGCATTGACCGCGAACGTGTAACCACAAGCAAAGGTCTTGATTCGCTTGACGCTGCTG	75.9 a.u.
CGGGGTTAAGTTTGTCACTGAACTTGCTTGCAGCAGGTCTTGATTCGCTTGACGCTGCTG	87.1 a.u.
AAAAGATATTATCCTCACGTGGAGTTATTGTAAAAAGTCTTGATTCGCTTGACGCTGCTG	869 a.u.
ACACTGCTTTGTACCCACGTTTCAAGAAATGGTGTGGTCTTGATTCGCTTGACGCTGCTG	129 a.u.
AGATCGACGGAAGAGAACGTGCAAACCTTTGGGCTGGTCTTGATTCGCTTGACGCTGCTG	112 a.u.
CTGTTGGGTTTTTCTCTCGAGCAAGCCGTTATAATTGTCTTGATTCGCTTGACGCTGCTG	66.5 a.u.
ATTCTGAGCAATATCTCCGTGCCAGAAATAAGCCCCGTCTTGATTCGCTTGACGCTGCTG	69.5 a.u.
CTTCTGTAAATTTTTCACGTGTGTTGACGCGCCCCGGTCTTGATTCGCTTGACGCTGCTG	580 a.u.
CATACCCAACCTTGGCTGGTGGGTGAAGATATTTGTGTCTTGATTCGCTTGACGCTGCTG	45.9 a.u.
TGGCGCCATCGCCATCACGATTTCAACCATGTCAATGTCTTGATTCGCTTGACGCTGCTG	61.1 a.u.
AAAGCGGTAATTTGGCACGTGGGTGCAGATATCTATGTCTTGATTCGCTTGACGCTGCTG	1350 a.u.
AAATTACTAAGTTGTCTTGTGGGTGACGCCGTATGAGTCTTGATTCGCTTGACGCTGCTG	75.7 a.u.
AAAGCGGTAATTTGGCACGTGTTTTCACATATCTATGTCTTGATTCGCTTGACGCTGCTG	3480 a.u.
GGTTGTTTAACAATAAACGTGTAGAGTACAGGTAGAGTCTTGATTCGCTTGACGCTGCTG	97.7 a.u.
TCAAATATGCACCATCTCGTGATGGTTCAAAGATTGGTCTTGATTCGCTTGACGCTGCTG	358 a.u.

Excerpt of the above (study 1):
Oligonucleotide	RBNS enrichment (R)
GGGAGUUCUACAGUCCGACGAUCGUGCUGGUGCAAGGACUUCUGUUCCAAAGGCUGGGAAAAACUAAGCUGUCCCAGCCCCUCCCAUUUCUUGGGCAGGGCUCUUUUCCUGUUGUGUCUUCCCCCAGGGCCUGUGGAAUUCUCGGGUGCCAA	0.349
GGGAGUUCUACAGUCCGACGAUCUUGCUAAGUCUAUUGAUGAUAUGAAUUGGAAAGGGAGAAUUUUGAAUAUGGUGAGAAAUUGGGAAAAAUGGACAUUGAUAGGCAUAUCAUCUGCUUUGUGUACAUAUGGUUGGAAUUCUCGGGUGCCAA	1.76
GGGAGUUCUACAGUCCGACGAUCAAGCUGCUGGAGCGACUGAUGUACAGUUGUUAUUUGUCUAUAAAUGGAGCUGUUUAUGGCAAUUUAAUACCAUUCUCUUUGUAAAGUGAAUAAAUACUCAUCUUUACCCAUGGAAUUCUCGGGUGCCAA	0.605
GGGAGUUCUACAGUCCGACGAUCUCCUGUUUCUCUAACACUAACAUGGAUAACCUAAGGGAAGUGCCAGCCGCUGUUGGCAGGGUAUUAAACGUGCAUUUUUACUCAACUACCUCAGGUAUUCAGUAAUACAGUGGAAUUCUCGGGUGCCAA	0.386
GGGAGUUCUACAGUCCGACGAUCACAACCUCUUCAAAGUACCCUUGGAAAUUGAAGUUCAAUCUUAAGUUUUUUGCUGUCUUUAAUUUACUAGAAUUGCCUAAUUUUUAGUUGAUUUCUCUACAGAGCUUAGCUGGAAUUCUCGGGUGCCAA	0.334
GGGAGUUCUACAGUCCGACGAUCAGAGUACCUGCUGCUGUAUCUUGGAAGAUGACAACAUCCUUUUUCAUUACUGUUUGAUUGAAAAUAAUUUCAAGAUUCAAAAUCUCAUUGACUUCCCAAAUUUGUGUUUUUGGAAUUCUCGGGUGCCAA	1.11
